Assay results of several laboratories.
Compare with care: the assays were run in different laboratories. ± marks the error that the study gave.
Cell line: PC-3

Compound	assay	setting	IC50
C[C@]12CC/C(=N/O)C=C1CCC1C2CC[C@]2(C)/C(=C/c3ccccn3)CCC12 (some centres unmarked)	cell growth or viability, MTT	72 h	57.7 µM
O=C1NN=C(c2ccccc2)/C1=N/Nc1ccccc1	cell growth or viability, MTT		1.22 µM
CC(=O)[O][Pt]([Cl])([Cl])[O]C(=O)CCCc1ccccc1.N.N	cell growth or viability		4.34 µM
CCCCCCCCC=CCCCCCCCC(=O)OC(COC(=O)Cc1c(C)n(C(=O)c2ccc(Cl)cc2)c2ccc(OC)cc12)COP(=O)([O-])OCC[N+](C)(C)C (centres unmarked)	cell growth or viability, SRB	72 h	33.5 µM
CC(C)=CCC1=C([O-])C(=O)c2ccccc2C1=O.CC(C)=CCC1=C([O-])C(=O)c2ccccc2C1=O.[Cu+2].c1ccc(-c2ccnc3c2ccc2c(-c4ccccc4)ccnc23)cc1	cell viability, MTT	24 h	1.2 ± 0.1 µM
CCN(CC)CCO/N=C1/C=C2CCC3C(CC[C@]4(C)/C(=C/c5ccccn5)CCC34)[C@@]2(C)CC1 (some centres unmarked)	cell growth or viability, MTT	72 h	> 100 µM
C=CCc1ccc(OCc2nnc(SCC(=O)Nc3cccc(Br)c3)o2)c(OC)c1	cell growth or viability, MTT	72 h	51.1 µM
C[C@]1([N+](=O)[O-])C(=O)c2ccccc2O[C@@H]1CC(=O)Nc1nc2ccccc2s1	cell growth or viability, SRB	96 h	> 50 µM
CCN1CCC2(CC1)C/C(=N\NC(=O)Nc1ccccc1)c1ccccc1O2	cell growth or viability, MTT	48 h	9.09 µM
C=C1C(=O)OC2CC3=C[C@@H](C/C(C)=C/C(OC(=O)Cc4cccc5ccccc45)[C@H]12)OC3=O (some centres unmarked)	cell growth or viability, MTT	24 h	5.5 µM
NC1CCCCC1N.O=C(CCCc1ccccc1)[O][Pt]1([O]C(=O)CCCc2ccccc2)[O]C(=O)C(=O)[O]1	cell growth or viability		6.35 µM
CC(C)=CCC1=C([O-])C(=O)c2ccccc2C1=O.CC(C)=CCC1=C([O-])C(=O)c2ccccc2C1=O.[Cu+2].c1ccc(-c2ccccn2)nc1	cell viability, MTT	24 h	34.1 ± 0.6 µM
CCCCCCCC(=O)NCCNC(=O)[C@]1(C)[C@@H]2CC[C@]3(C)[C@H](C(=O)C=C4[C@@H]5[C@@H](C)[C@H](C)CC[C@]5(C)CC[C@]43C)[C@@]2(C)CC[C@H]1OC(C)=O	cell growth or viability, MTT	48 h	12.3 µM
N.N.O=C(CCCc1ccccc1)[O][Pt]([Cl])([Cl])[O]C(=O)CCCc1ccccc1	cell growth or viability		0.41 µM
FC(F)(F)Sc1ccc(-c2noc(-c3cccs3)c2C(F)(F)F)cc1	cell growth or viability, MTT	48 h	33.2 µM
C=C[C@H](OC(C)=O)c1ccc(OC(C)=O)cc1	cell growth or viability, MTT	24 h	26.7 µM
O=C1c2ccc3c4cccc5c(N6CCNCC6)ccc(c6ccc(c2c36)C(=O)N1CCN1CCCCC1)c54	cell growth or viability, SRB	72 h	42.9 µM
C=CCc1ccc(OCc2nnc(SCC(=O)Nc3ccc(Cl)cc3Cl)o2)c(OC)c1	cell growth or viability, MTT	72 h	30 µM
CC(=O)O[C@@H]1CC[C@@]2(C)[C@@H](CC[C@]3(C)[C@@H]2C(=O)C=C2[C@@H]4[C@@H](C)[C@H](C)CC[C@]4(C)CC[C@]23C)[C@@]1(C)C(=O)NCCNC(=O)CCCCCCCBr	cell growth or viability, MTT	48 h	14.1 µM
COC(=O)[C@H]1CC[C@H](NC(=O)C[C@H]2Oc3ccccc3C(=O)[C@]2(C)[N+](=O)[O-])CC1	cell growth or viability, SRB	96 h	> 50 µM
N=C(N)Nc1nc2ccccc2s1	cell growth or viability, MTT	24 h	446 µM
COC(=O)C(NC(=O)CNC(=O)CNC(=O)COc1ccc2c(C)cc(=O)oc2c1)c1ccccc1 (stereo in doubt)	cell growth or viability, MTT		147 µM

Compound	assay	setting	IC50
CCCCOC(=O)C[C@H]1Oc2ccccc2C(=O)[C@]1(C)[N+](=O)[O-]	cell growth or viability, SRB	96 h	> 50 µM
[Cl][Pd-2]1([Cl])[N+](=Cc2ccc[nH]2)Cc2cccc[n+]21	cell growth or viability, MTT	24 h	20.9 µg/mL
CC(=O)O[C@@H]1CC[C@@]2(C)[C@@H](CC[C@]3(C)[C@@H]2C(=O)C=C2[C@@H]4[C@@H](C)[C@H](C)CC[C@]4(C)CC[C@]23C)[C@@]1(C)C(=O)NCCNC(=O)CCCCCBr	cell growth or viability, MTT	48 h	9.33 µM
N=C(N)Nc1nc2ccccc2o1	cell growth or viability, MTT	24 h	169 µM
COC(=O)[C@H](CC(C)C)NC(=O)CNC(=O)COc1ccc2c(C)cc(=O)oc2c1	cell growth or viability, MTT		70.8 µM
C[C@]12CC/C(=N\OCCN3CCOCC3)C=C1CCC1C2CC[C@]2(C)/C(=C/c3ccccn3)CCC12 (some centres unmarked)	cell growth or viability, MTT	72 h	> 100 µM
C[C@H]1[C@H](C)CC[C@]2(C)CC[C@]3(C)C(=CC(=O)[C@@H]4[C@@]5(C)CC[C@@H](O)[C@](C)(C(=O)NCCNC(=O)c6ccccc6)[C@@H]5CC[C@]43C)[C@H]12	cell growth or viability, MTT	48 h	14.3 µM
CC1(C)[C@@H](O)CC[C@]2(C)[C@H]3C(=O)C=C4[C@@H]5C[C@@](C)(C(=O)O)CC[C@]5(C)CC[C@@]4(C)[C@]3(C)CC[C@@H]12	cell growth or viability, MTT		> 40 µM
CC(=O)O[C@@H]1CC[C@@]2(C)[C@@H](CC[C@]3(C)[C@@H]2C(=O)C=C2[C@@H]4[C@@H](C)[C@H](C)CC[C@]4(C)CC[C@]23C)[C@@]1(C)C(=O)NCCNC(=O)C1CC1	cell growth or viability, MTT	48 h	6.79 µM
CCCCn1cc(C(=O)O)c(=O)c2cc(F)c(Nc3ccc(OC)cc3)c([N+](=O)[O-])c21	cell growth or viability, SRB	72 h	> 200 µg/mL
Cc1ccc(C(=O)NCCNC(=O)[C@@]2(C)[C@H](O)CC[C@@]3(C)[C@H]2CC[C@]2(C)[C@@H]3C(=O)C=C3[C@@H]4[C@@H](C)[C@H](C)CC[C@]4(C)CC[C@]32C)cc1	cell growth or viability, MTT	48 h	14 µM
CCN(CC)CCN1C(=O)c2ccc3c4cccc5c(NCCN)ccc(c6ccc(c2c36)C1=O)c54	cell growth or viability, SRB	72 h	7 µM
CCN1CCC2(CC1)C/C(=N\N=C\c1ccc(O)cc1)c1ccccc1O2	cell growth or viability, MTT	48 h	22.2 µM
CC(=O)O[C@@H]1CC[C@@]2(C)[C@@H](CC[C@]3(C)[C@@H]2C(=O)C=C2[C@@H]4[C@@H](C)[C@H](C)CC[C@]4(C)CC[C@]23C)[C@@]1(C)C(=O)NCCNC(=O)CCBr	cell growth or viability, MTT	48 h	> 30 µM
Cc1nc([N+](=O)[O-])c(N2CCNCC2)n1Cc1ccccc1	cell growth or viability, MTT	72 h	> 500 µM
CCOC(=O)C1=C(C)NC(=O)N[C@@H]1/C=C/c1ccc(OC)cc1	cell growth or viability, MTT	24 h	13.8 µM
COc1ccc(-c2c(C#N)c(N)n(-c3nnc(NC(=O)c4ccccc4)s3)c(=O)c2C#N)cc1	cell growth or viability, MTT	48 h	35.8 µM
CCCCCCC(=O)NCCNC(=O)[C@@]1(C)[C@H](O)CC[C@@]2(C)[C@H]1CC[C@]1(C)[C@@H]2C(=O)C=C2[C@@H]3[C@@H](C)[C@H](C)CC[C@]3(C)CC[C@]21C	cell growth or viability, MTT	48 h	12.5 µM
Cc1ccc(NC(=O)N/N=C2\CC3(CCN(C)CC3)Oc3ccccc32)cc1	cell growth or viability, MTT	48 h	9.71 µM
C=CC(OC(C)=O)c1cc(OC)cc(OC)c1 (centres unmarked)	MTT	24 h	> 50 µM
CCN1CCC2(CC1)C/C(=N\NC(=O)Nc1ccc(OC)cc1)c1ccccc1O2	cell growth or viability, MTT	48 h	15.5 µM
O=C([O][Ti+2][O]C(=O)c1ccc([P+]([Au-][Cl])(c2ccccc2)c2ccccc2)cc1)c1ccc([P+]([Au-][Cl])(c2ccccc2)c2ccccc2)cc1.c1cc[cH-]c1.c1cc[cH-]c1	cell viability, XTT	24 h	51 µM

Some of these lines once more:
Compound	assay	setting	IC50
N.N.O=C(CCCc1ccccc1)[O][Pt]([Cl])([Cl])[O]C(=O)CCCc1ccccc1	cell growth or viability		0.41 µM
FC(F)(F)Sc1ccc(-c2noc(-c3cccs3)c2C(F)(F)F)cc1	cell growth or viability, MTT	48 h	33.2 µM
C=C[C@H](OC(C)=O)c1ccc(OC(C)=O)cc1	cell growth or viability, MTT	24 h	26.7 µM
O=C1c2ccc3c4cccc5c(N6CCNCC6)ccc(c6ccc(c2c36)C(=O)N1CCN1CCCCC1)c54	cell growth or viability, SRB	72 h	42.9 µM
C=CCc1ccc(OCc2nnc(SCC(=O)Nc3ccc(Cl)cc3Cl)o2)c(OC)c1	cell growth or viability, MTT	72 h	30 µM
CC(=O)O[C@@H]1CC[C@@]2(C)[C@@H](CC[C@]3(C)[C@@H]2C(=O)C=C2[C@@H]4[C@@H](C)[C@H](C)CC[C@]4(C)CC[C@]23C)[C@@]1(C)C(=O)NCCNC(=O)CCCCCCCBr	cell growth or viability, MTT	48 h	14.1 µM
